Assay results from different studies.
Compare with care: the assays were run in different laboratories. Numbers after ± are the reported error.

`C=CC(=O)Nc1cccc(N(C(=O)OCc2ccc(F)cc2)c2ccnc(Nc3ccn(C)n3)n2)c1` gave an EC50 of 19 ± 3.6 nM (Ba/F3 HER2 GSP insertion; cell growth; inactive means EC50 above 10 µM).
The EC50 of `COc1ccc(NC(=O)N[C@H](Cc2ccc(C#N)cc2)C(=O)NCC2(c3cccc(O)c3)CC2)cc1` is reported as 44400 nM (N9 mouse microglia; MTT; 24 h, resting conditions).
`O=C(Nc1ccc([N+](=O)[O-])cc1)N[C@@H](Cc1c[nH]c2ccccc12)C(=O)NCC1(c2ccccc2)CCCCC1` has an EC50 of 50 ± 20 nM (human neutrophils; Ca2+ mobilization, agonist; added: probenecid 2.5 mM).
`COCCCn1nc(-c2ccc(CC(=O)Nc3cc(C(C)(C)C)on3)cc2)c2c(N)ncnc21` has an EC50 of 300 ± 20 nM (KM12; cell viability).
The EC50 of `COc1ccc(NC(=O)N[C@@H](Cc2ccc(O)cc2)C(=O)NCC2(c3ccccc3)CC2)cc1` is reported as over 100000 nM (N9 mouse microglia; MTT; 24 h, resting conditions).
With `COC(=O)[C@@]1(C)C=C(C(=O)OCc2cccc(C(=O)Nc3ccc(Nc4nccc(-c5cccnc5)n4)c(C)c3)c2)C(=O)CC1` the EC50 was 644 ± 110 nM (SH-SY5Y MKK7-activated cells; c-Jun Ser63 phosphorylation, inhibitor, HTRF; 6 h, added: doxycycline).
With `COc1ccc(C2(CNC(=O)[C@H](Cc3c[nH]c4ccccc34)NC(=O)Nc3ccc([N+](=O)[O-])cc3)CCCCC2)cc1` the EC50 was 12400 ± 3800 nM (human neutrophils; chemotaxis, agonist).
The EC50 of `COc1ccc(NC(=O)N[C@H](Cc2ccc(C#N)cc2)C(=O)NCC2(c3ccc(O)cc3)CC2)cc1` is reported as over 100000 nM (N9 mouse microglia; MTT; 24 h, resting conditions).
`Cc1cc(OCCCc2c3n(c4c(-c5c(C)nn(C)c5C)c(Cl)ccc24)CCCN(c2cc(C(=O)O)cc4c2ccn4C)C3=O)cc(C)c1Cl` gave an EC50 of over 50000 nM (K562; caspase-3/7 activation; 3 h, 5% FBS).
For `CCc1ccc(NC(=O)CSc2nc3ccc(OC)cc3[nH]2)cc1`, the EC50 was 800 nM (human neutrophils; calcium mobilization, agonist).
`COc1cccc(Nc2c(C(=O)O)c(C)nn(CC(=O)Nc3ccc(Br)cc3)c2=O)c1` has an EC50 of 1500 ± 500 nM (human neutrophils; calcium flux, agonist).
The EC50 of `O=C1Nc2cccc(C#CC3(O)CCNCC3)c2/C1=C/c1cc2ccccc2[nH]1` is reported as under 50 nM (C8161.9; invadopodia formation, inhibitor; short-term).
The EC50 of `COc1ccc2nc(SCC(=O)Nc3ccc(OC(F)(F)F)cc3)[nH]c2c1` is reported as 3000 nM (human neutrophils; calcium mobilization, agonist).
For `Cn1nc(-c2ccc(CC(=O)Nc3cc(C(C)(C)C)on3)cc2)c2c(N)ncnc21`, the EC50 was 20400 ± 510 nM (A549; cell viability).
`O=C(Nc1ccc([N+](=O)[O-])cc1)N[C@@H](Cc1c[nH]c2ccccc12)C(=O)NCC1(c2ccccn2)CCCCC1` gave an EC50 of 2300 nM (human neutrophils; chemotaxis, agonist).
With `Cc1cc(NC(=O)c2cccc(NC(=O)C3=CC(C)(C)CC3=O)c2)ccc1Nc1nccc(-c2cccnc2)n1` the EC50 was 378 ± 108 nM (SH-SY5Y MKK7-activated cells; c-Jun Ser63 phosphorylation, inhibitor, HTRF; 6 h, added: doxycycline).
The EC50 of `COc1ccc2nc(SCC(=O)Nc3ccc(S(N)(=O)=O)cc3)[nH]c2c1` is reported as 17200 nM (human neutrophils; calcium mobilization, agonist).
The EC50 of `CCN1CCN(Cc2ccc(Nc3ncc4c(n3)Sc3ccccc3C(=O)N4C)cc2C(F)(F)F)CC1` is reported as over 10000 nM (HeLa S3; cell growth, CellTiter-Glo; 96 h).
For `Cc1cc(NC(=O)c2cccc(NC(=O)C3=CC(C)(C)CCC3=O)c2)ccc1Nc1nccc(-c2cccnc2)n1`, the EC50 was 616 ± 169 nM (SH-SY5Y MKK7-activated cells; c-Jun Ser63 phosphorylation, inhibitor, HTRF; 6 h, added: doxycycline).
For `O=C(Nc1ccc([N+](=O)[O-])cc1)N[C@@H](Cc1c[nH]c2ccccc12)C(=O)NCC1(c2ccccc2)CC1`, the EC50 was 22300 ± 5400 nM (human neutrophils; chemotaxis, agonist).

A few entries again:
The EC50 of `COc1ccc2nc(SCC(=O)Nc3ccc(OC(F)(F)F)cc3)[nH]c2c1` is reported as 3000 nM (human neutrophils; calcium mobilization, agonist).
